Measurements collected from several papers.
Parts stem from different laboratories: compare values within a part only. Positions count from the first letter of the parent shown.

Set 1
Target: RNA binding protein fox-1 homolog 2, RRM domain, GST-SBP tag (RBFOX2, Homo sapiens, UniProt O43251-10, residues 100-194)
Technique: RNA Bind-n-Seq
Form: RNA
Medium: in vitro
Concentration: 365 nM
Setting: natural RNA segment, single round, ends assumed
Reference: no-protein control
Direction: higher = stronger binding
Measurement: RBNS enrichment (R)
Shared flanks, not repeated: GGGAGUUCUACAGUCCGACGAUC … UGGAAUUCUCGGGUGCCAA
Residues (chain): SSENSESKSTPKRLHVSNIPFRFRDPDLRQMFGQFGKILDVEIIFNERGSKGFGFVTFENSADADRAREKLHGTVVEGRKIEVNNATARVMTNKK
CACUCUGGCCCUGGAGCCGCCUUUGUUAACAGCAACAAGAAUGCUGCAGUGCUACAACGUGCUGGAAGAUGUGUCAGAUUUGCUUUAAAGAUGAGAAUCUGGUGUUUCUG: 0.401
UUAAAACAGCAAGAUAAUAGUUCUUUGAUACUUUGAGAGGCGCUUUGAUGACCCUCAUCCAAGUCUAUGACACUUUCCUAUGGUUUUCUGUAUUCUAUGUCUGGAUGGAG: 0.322
GAUGAGAUGGAUCAAGGUCAAAAUGAUCCUUUAUCUACAUUUUCCAAAGAGAAUCUAAUUUUUUCAGUGGGUGAACUCAUCAUUGCUGGAACUGAAACUACAACCAAUGU: 0.256
GAGGCAAGAGAUAAGGGCAGGAUAUAGCACAUGAUGGCUUCCAGCAGAACUGAGUCUAUAGCCCAGGUCUGCUGGCUUCCAGCACAUGUUGUACACUAAGAUUUCAUGCA: 0.763
AAAGUCCUUUGUAUUGGCACAUGAUAAAUCUUGAUGACGGGCUAUAUUCUGAACAAACGCUUGCACUGACCAAAGCUUGUGUUUAGCGUGUGUUUAGCAUAGGUGCUGUA: 0.388
UGAGAAUGCAUAUAUAUAUUUUUUAACAUUUCCUAUAUAUCUAAGGUACCAAAGCACUGAGUCUAAUUUACCUAUUAAGGGAGACUCUUUAAAAUCAACUUUAUAACUAA: 0.817
UCCCCUCUACUUGCGAGUUAUGGAAUUUCUAUUCCAUAACUGAAGUCUUUAUGAUAACCUAAUUUUUAAAAAUGAAUUUGACUAACUUAAGUGCAAAACAUGUAAAUUUG: 0.789
AUUGUCUCUGAAAAUAAUGACAGUUUAUAAAAUGUUUAGGUACAAAGGCAUAAAUGAUAAUAAGUAAGCCUGGUAAUAUGUUCUUAUUUAAGAAGAACCUGAGAAGGUUU: 0.478

Set 2
Target: Interferon regulatory factor 5, full length, phosphomimetic (IRF5, Homo sapiens, UniProt Q13568-2, residues 1-514, S451D/S453D/S456D/S462D)
Technique: protein-binding microarray
Form: double-stranded DNA, one strand shown
Medium: in vitro
Concentration: 940 nM top
Setting: 60-bp whole probe
Added: salmon DNA 0.4 mg/ml
Reference: random background probes
Direction: higher = stronger binding
Measurement: fitted relative affinity
Shared flanks, not repeated: GCCTAGCAC … GTCTTGATTCGCTTGACGCTGCTG
CTAGATTTCAGTTCCGATTAGTGCTAG: 1.75 z-score
TCATACTTGTGTCTAGAACTGTGCTAG: -0.0596 z-score
TTACATTTCGGGTATCGATTAGTGCTA: 3.76 z-score
GCCTTTATATACCTGAATATGTGCTAG: 0.577 z-score
TTAGATTCCAGTTACGATTAGTGCTAG: 0.636 z-score
TCAAATTGTCCTTTCACACTGTGCTAG: 0.585 z-score
TCATATCTGGGTTCCCCACTGTGCTAG: -0.104 z-score
TGTTATTAAATTTTCACGGTGTGCTAG: 0.0974 z-score
TTAGATTTCACTCTCGATTAGTGCTAG: 4.58 z-score
CACGATATCAGACTGGAGACGTGCTAG: -0.049 z-score
TTAGGTCACGGTTTCGGTTAGTGCTAG: 6.45 z-score
GTCACTCTCTGGGCTGTGGGTGTGCTA: 0.551 z-score
GACGAACTGAGACTGGACACGTGCTAG: -0.22 z-score
GACGGTTTCGGGTTTCGGTACGTGCTA: 9.79 z-score
CTAGGACTGGGACTGGGTTAGTGCTAG: -0.545 z-score
TGAGGTTTCGACTTTCGGTTAGTGCTA: 7.1 z-score
GACGGTATCCCACTGCTGACGTGCTAG: -0.065 z-score
GACGGTATCTGTTTCGGGACGTGCTAG: 3.82 z-score
GACGTACTGGGTATCGGGACGTGCTAG: 0.683 z-score

Set 3
Target: CCNF, cyclin fold, Cln2 fusion (human)
Technique: yeast growth competition, sequencing
Medium: yeast
Setting: strong parent motif
Reference: not given
Direction: higher = stronger binding
Measurement: normalised enrichment score
Starting sequence: E2F2 docking peptide (human); LPAKRKLDLEGIG; partner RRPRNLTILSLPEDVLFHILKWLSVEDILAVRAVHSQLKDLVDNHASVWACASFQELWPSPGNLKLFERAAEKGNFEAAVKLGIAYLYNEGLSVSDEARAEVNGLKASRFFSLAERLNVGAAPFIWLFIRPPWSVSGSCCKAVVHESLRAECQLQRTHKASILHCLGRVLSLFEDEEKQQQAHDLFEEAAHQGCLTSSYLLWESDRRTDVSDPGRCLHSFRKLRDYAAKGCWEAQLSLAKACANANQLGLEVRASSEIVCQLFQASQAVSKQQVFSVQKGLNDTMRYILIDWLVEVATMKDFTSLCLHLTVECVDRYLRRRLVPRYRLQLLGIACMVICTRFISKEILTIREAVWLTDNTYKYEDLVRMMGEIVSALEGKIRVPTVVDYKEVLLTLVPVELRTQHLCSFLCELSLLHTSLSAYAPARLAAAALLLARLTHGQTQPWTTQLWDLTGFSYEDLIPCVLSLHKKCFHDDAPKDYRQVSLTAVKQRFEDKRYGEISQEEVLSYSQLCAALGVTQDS
LPAARKLDLEGIG [K4A]: 7.05
LPAKRKADLEGIG [L7A]: 1.34
LPAKRKLDLAGIG [E10A]: 4.7
LPAKAKLDLEGIG [R5A]: 0.69
LPAKKKLDFEGIG [R5K L9F]: 7.16
LPAKRKLALEGIG [D8A]: 4.51
LPAKKKLDLEGIG [R5K]: 3.03
LPAKRKLDLEGAG [I12A]: 5.07
LPAKAKADLEGIG [R5A L7A]: 0.366

Set 4
Target: FOSB, bZIP domain (human)
Technique: DHFR protein complementation
Medium: yeast
Setting: single substitutions, most at no-binding floor
Reference: wild-type JUN-FOS pair
Direction: higher = stronger binding
Measurement: binding fitness
Starting sequence: JUN, bZIP domain (human); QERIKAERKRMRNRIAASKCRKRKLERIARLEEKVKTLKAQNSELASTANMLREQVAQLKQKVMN; partner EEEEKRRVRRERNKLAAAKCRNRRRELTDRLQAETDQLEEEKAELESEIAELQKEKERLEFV
T48V: -0.108 natural log
T37E: 0.0272 natural log
N42F: -0.965 natural log
S47V: 0.0736 natural log
A40F: -0.0822 natural log
R53P: -1.17 natural log
S43Q: -0.0165 natural log
E54R: -0.161 natural log
Q55N: -0.495 natural log
S47M: -0.104 natural log
L31V: -0.708 natural log
A57S: -0.249 natural log
K34A: -0.212 natural log
K39F: -1.03 natural log
E33H: -0.287 natural log
K39C: -0.649 natural log
E44V: -0.0927 natural log
L31W: -0.368 natural log
E44I: -0.116 natural log

Set 5
Target: ABI1, truncated, D143A, DHFR fusion (Arabidopsis thaliana)
Technique: DHFR PCA, deep sequencing
Medium: yeast
Setting: methotrexate growth selection, single substitutions
Added: (+)-ABA 2500 µM
Reference: wild-type fitted maximum
Direction: higher = stronger binding
Measurement: relative binding score
Starting sequence: PYL1, truncated, DHFR fusion (Arabidopsis thaliana); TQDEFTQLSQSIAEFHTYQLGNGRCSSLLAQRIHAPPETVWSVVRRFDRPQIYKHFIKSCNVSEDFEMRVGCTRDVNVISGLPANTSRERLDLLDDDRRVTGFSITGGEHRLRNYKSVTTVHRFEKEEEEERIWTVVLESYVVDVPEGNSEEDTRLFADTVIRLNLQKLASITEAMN; partner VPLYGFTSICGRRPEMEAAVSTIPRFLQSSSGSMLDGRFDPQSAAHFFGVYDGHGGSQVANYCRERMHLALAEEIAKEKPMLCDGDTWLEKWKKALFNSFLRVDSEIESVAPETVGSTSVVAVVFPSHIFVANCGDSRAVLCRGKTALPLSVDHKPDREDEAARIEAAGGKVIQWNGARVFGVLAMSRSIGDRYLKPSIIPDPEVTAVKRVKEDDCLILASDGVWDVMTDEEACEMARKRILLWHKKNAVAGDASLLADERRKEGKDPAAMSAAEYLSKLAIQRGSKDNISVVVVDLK
R113G: 101%
E67V: 97.5%
G148K: 87.5%
I12T: 90.1%
I172K: 91%
V40S: 37.8%
Q7Y: 108%
R46I: 91.6%
H55E: 91.5%
T17W: 77.9%
S42W: 96%
C60L: 88.7%
E89D: 89.9%
I172P: 14.9%
P146I: 57.6%
N85K: 93%
R98K: 109%
F103M: 102%
E152V: 93.8%
S63T: 94.8%

A few entries again (set 5):
T17W: 77.9%
S42W: 96%
C60L: 88.7%
E89D: 89.9%
I172P: 14.9%
P146I: 57.6%
